Experimental data collected from several papers.
A part holds a random share of what one study measured. Changes are numbered by the printed parent chain.

Sample 1 — technique: DHFR PCA, deep sequencing; medium: yeast; with: (+)-ABA 0 µM; reference: wild-type fitted maximum; reading: higher = stronger binding
Target: ABI1, truncated, D143A, DHFR fusion (Arabidopsis thaliana)
Setting: methotrexate growth selection, single substitutions
Starting sequence: PYL1, truncated, DHFR fusion (Arabidopsis thaliana); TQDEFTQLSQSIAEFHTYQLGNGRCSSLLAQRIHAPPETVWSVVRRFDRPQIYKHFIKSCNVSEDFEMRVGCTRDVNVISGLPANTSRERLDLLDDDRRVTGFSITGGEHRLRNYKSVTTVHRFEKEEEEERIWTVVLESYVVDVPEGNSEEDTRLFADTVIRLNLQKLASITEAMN
Variant | relative binding score
E174N | -3.21%
H34P | 3.8%
T173H | 0.38%
T101L | 63.6%
S140F | -10%
S171D | 31.1%
L82A | 10.3%
G107T | 1.33%
T86D | -1.72%
S9G | 16.1%
V70R | 0.759%
I57W | 3.17%
F47V | -1.24%
P50F | 3.99%
L112W | 17%

Sample 2 — target: FOSL2, bZIP domain (human); technique: DHFR protein complementation; medium: yeast; reference: wild-type JUN-FOS pair; reading: higher = stronger binding
Setting: single substitutions, most at no-binding floor
Starting sequence: JUN, bZIP domain (human); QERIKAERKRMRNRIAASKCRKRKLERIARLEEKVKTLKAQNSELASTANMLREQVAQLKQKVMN; partner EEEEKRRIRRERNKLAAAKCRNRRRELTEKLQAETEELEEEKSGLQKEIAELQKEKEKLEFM
Variant | binding fitness [natural log]
S43W | -0.0984
E33Q | -0.0218
E54M | 0.0107
L31R | -0.621
M51W | 0.0285
V35P | -1.18
E32C | 0.242
E32Y | -0.151
A29H | 0.0375
E33C | -0.11
R30Y | 0.0981
K39R | 0.148
Q41D | -0.0449
V35L | -0.0705
A49Q | -0.395
I28C | -0.108
N42H | -0.485
T37L | 0.139
L31M | 0.113
S43R | 0.149
A46H | 0.0564
L52V | -0.471
K34G | 0.0725

Sample 3 — technique: RNA Bind-n-Seq; form: RNA; medium: in vitro; tested at: 365 nM; reference: no-protein control; reading: higher = stronger binding
Target: RNA binding protein fox-1 homolog 2, RRM domain, GST-SBP tag (RBFOX2, Homo sapiens, UniProt O43251-10, residues 100-194)
Setting: natural RNA segment, single round, ends assumed
Shared flanks, not repeated: GGGAGUUCUACAGUCCGACGAUC … UGGAAUUCUCGGGUGCCAA
Target sequence (chain): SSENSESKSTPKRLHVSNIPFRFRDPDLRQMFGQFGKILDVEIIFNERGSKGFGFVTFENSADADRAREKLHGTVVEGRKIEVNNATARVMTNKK
Strand | RBNS enrichment (R)
GAAGAAGGAAAGGCGGUGAGAGCCAGAGCGGUGAUGCCAGAGUGGUGGCCCCUGUGGGGUGUCCUGUCACAGCCAUGUCUAUGGAAUCGCAGAGGCGGUGGGAAGGCUGU | 0.993
GUGAAUGCUAUCCUCAAGGCCCUGCCCCAGUGAGCCCCCCUGGGCGCCUCAGUGGGCAUCCUGGCCUCGGCUCCUUCUGCCUGUGUGAGCAUCUGUGCACCCACUCUUCA | 0.851
CUCUUCCUCUCCAGAGCCUUGGGAGAAGGACUUUCCCCGGUUGUACUUAAUUGAUUGGUUGUCCCAAGUGUUGCUCUUACUUGAUUUGCCAAAUGCCUCCUGCUUCUCGU | 0.786
CCCUAAUGCUGGUCUCUGCUCCACUCCCCGGCUUCCCGUGAGGCAGGAGGCAGAGCCACAGCCAAGGCCCUGACCACUUCUGUGCCAGUUGUCUAAGCAGAGCGCCUCAG | 0.167
GUACUUUUUCUGGGUUGGCAAUUUGAUGACCACUUUGGUUCAGUCAAAAUGUGUGUACUUUUGGGCCAAAAGCCAGCACUUACACACACACACAUACACAUACACACACA | 0.522
AGGCCGAGCCCACCCUUAGCCACCAGGCUCAGUGGCUGUACAGAGCAGCUGGCUGACAUCUGUCCCUGCUCCACCCCUGCCCCUACCCGCACCCCUCUGGUUCUCAGCAA | 0.278
CACUUCUCCUUUACGCUGUGUAGAGAAUGCUCUGCAGUUUAGGCAAUAAAAAUAAAUUGUCUCACUACCUUGGCUCAUCUCUUUGGCCUAGAUUCUCCUGGGAUUUACUU | 0.366
CUCAUCAGCAUUGUCCUCUUUGGAAAUUUUGUCCUCCUGAGGAAAUGCACUUGACGAGUGCUGAAAACUUCUUAAGUGGUUUAAAUUUUGUUUUCAUUGUUUGCAGCGGA | 0.806
GGGUUUUAAUCCAGGACAUAAGCAGAAAUCGCUCUCUUUAGUGAAGGGAGCAGCUGAUUUUUUCAUUUUCUUGCCACAAGGCAUGUUGACAGAAGAAUAAAAUUCUUUGU | 0.585
UUUCUGGACAAACUCUUUAUGUGUUUUUCCCAAGAAUAGUUAUCUACUUCCUGGAGGCAAAAUCCUUGGAUUUACUAACAUGAUGAUUUACCUUUUCUUCACCGUUGUCG | 0.245
GAAGGCCAGCCCUUACCCCAACACCCACUUCCCCACCUCCUUAGGCCCCAGAUACAUACAUGCCCACAUGCACGCUUACAUGUUUAGAGCCAUCCUUGUUUCCAAAUAUG | 2.78
AGGGUAUACUUAGCACCACACCACACAGCGCCUAGACCCAGGCAUUUUACUGGGGUGAUUCGGCUGUUGUCUUUGUGAAAUCCGGGGAAACAGAUCACUGAAAUUCAAAG | 0.327

Sample 4 — target: CCNB2, cyclin fold, Cln2 fusion (human); technique: yeast growth competition, sequencing; medium: yeast; setting: weak parent motif; reference: not given; reading: higher = stronger binding
Starting sequence: DNAH7 docking peptide (human); HELFQRLDFDNDG; partner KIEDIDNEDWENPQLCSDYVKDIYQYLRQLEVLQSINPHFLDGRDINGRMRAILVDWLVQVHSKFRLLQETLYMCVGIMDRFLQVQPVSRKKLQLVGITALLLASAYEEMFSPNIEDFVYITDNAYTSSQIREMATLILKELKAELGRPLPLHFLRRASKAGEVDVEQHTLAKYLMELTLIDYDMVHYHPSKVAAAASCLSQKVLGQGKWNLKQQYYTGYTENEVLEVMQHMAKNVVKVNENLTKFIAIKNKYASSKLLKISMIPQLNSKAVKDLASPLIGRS
Variant | normalised enrichment score
G13A | -0.0494
D12A | 0.303
R6A | -0.0504
L7A | -0.694
F9A | -0.298
H1A | 0.236
E2A | 0.453

Sample 5 — technique: RNA Bind-n-Seq; form: RNA; medium: in vitro; tested at: not given; reference: input RNA pool; reading: higher = stronger binding
Target: RING finger protein unkempt homolog, zinc fingers 1-6, GST-SBP tag (UNK, Homo sapiens, UniProt Q9C0B0, residues 30-357)
Sequence of UniProt Q9C0B0 (30-357, looked up): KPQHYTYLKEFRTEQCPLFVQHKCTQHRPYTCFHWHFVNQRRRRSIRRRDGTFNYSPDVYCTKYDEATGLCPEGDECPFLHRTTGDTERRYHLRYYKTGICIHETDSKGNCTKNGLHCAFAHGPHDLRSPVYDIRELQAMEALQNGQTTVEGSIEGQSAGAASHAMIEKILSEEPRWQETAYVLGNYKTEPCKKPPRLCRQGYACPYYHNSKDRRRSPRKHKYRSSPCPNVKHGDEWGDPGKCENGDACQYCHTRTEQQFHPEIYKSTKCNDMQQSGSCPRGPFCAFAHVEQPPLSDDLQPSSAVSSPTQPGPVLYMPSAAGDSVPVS
Setting: RNA with constant flanks, human and mouse sites, ends assumed
Shared flanks, not repeated: GGGAGUUCUACAGUCCGACGAUC … CAACAGAGGAUUGAGCAUCA
Strand | bound/input enrichment
GAUGAGGGUCAGAAGCCUUACCUGGUACAGCGGAGAGGAGCUGAAUUUGCCUUAACAACUAUAGUGAAGCAUUUUGGUGCUGAAAUGGCAGUGAAGUUGCCACAUCUUUGGGAUGCUAUG | 0.265 ratio
UAAUCGGGGGUAAACAUUUUUGAAGAUUUAUUCUUUUUGUGUUGCUGGGGUGUAUACAUUUAUGUCUUUGUGAAAUACACUGGUGGUGUCCUUCUUACAAAACUUUUGAAAUAAAAAAAA | 0.348 ratio
ACAUUUUCCUCCUAAUAAAUUAUCCUUGUGAUGGGCGACAUGGCCAACAACUCAGUUGCGUAUAGCGGUGUGAAGAACUCUUUGAAAGAAGCUAACCAUGAUGGAGACUUUGGAAUUACG | 0.648 ratio
AUGAACUAACUGGUGUGUGAGAGAAGAAACUGGAGAUCUGAUCCGUGUGUGUGUGGGAGUUGCUUGGAGUCAGGGCUGGGGACAGGGGACAGCAGUGGAGGAAGGAGUGAUGUCCUCAGC | 0.569 ratio
AAAUUUAUAUUAAUAAAUUACUAAACUAAGAGUAUCAGGUUAUUUAUAUAUUUGCAAGCAAAGGACAGUAAGAAGUUGACUGGCAAAAGAGCAGUGCUGAAGGAGGAGAUCCAGGUUUAA | 0.68 ratio
UGUUUAGAAGGAAUGAUUCUUGCAGCAAAAUCAGUUGAUGAAAGAAGAGAUUCUCAAAUGGUAGUAGACUCCUUCAAGUCUGGCUUUGAACCUCCAGGAGACUUUCCAUUUGAAGAUUAC | 0.219 ratio
CGGUCUCUUCCAUCUCCUUCCUCUGCUCACUUGGCUGCUUUAAGUGUUGCAGUUGUUGAGUUAGCAAAAGAACAAGGAAUAACAGAUGAUGACCUCAGAAUCCGCCAGGACAUUGUGGAG | 0.108 ratio
UUUGUGACAUCCCCAGCAGCAGACAACAUAGAAAUGCUUCCUCAUUAUGAGCCAAUUCCAUUCAGUUCUUCUAUGAAUGAAUCUGCUCCCACUGGUAUUACUGAUCAUAUUGUCCAAGGA | 0.348 ratio
UGUAGGACUCCAUGCUGCCAGUUUCUUUUUUGGUUCCUUUCUGCCCAGGACUGCAUGAGUUUCCCAGCCCCAAGUGGGGGCUGCUAGGCCCUUCCUCCCUGCCUCUGGGAACCGGGCUGG | 0.384 ratio
ACCCAGCCAAACCCACCUCCACCAUGGGGGCCAUGACUCAGCUGUUGGCAGGUGUCUUUCUUGCUUUCCUUGCCCUCGCUACCGAAGGUGGGGUCCUCAAGAAAGUCAUCCGGCACAAGC | 0.103 ratio
CCUUGGAGGCUCCAUGUCAACAUGGGGACUACCCUUCACAGAGUUACUACUAUUUCAAUGGCUCGCUGCACACUCACUCUUCUUAAAACUAUGUUAACGGAACUCCUGAGAGGUGGAUCC | 0.222 ratio

Mixed results
Molecule | target | assay | system | conditions | scale | measurement | result
PhoQ, residues 284 288 289 292 302 303 NSMLDC | PhoP, residues 12 14 15 18 19 LHHVQ (Escherichia coli, UniProt P23836) | Sort-seq, measured: YFP reporter | E. coli | PhoQ-PhoP variant library, with: 10 µM Mg2+ | reference: high Mg2+ state, higher = stronger signaling | fold induction | 1.31

Repeated from above (sample 2):
Variant | binding fitness [natural log]
E33C | -0.11
R30Y | 0.0981
K39R | 0.148
Q41D | -0.0449
V35L | -0.0705
A49Q | -0.395
I28C | -0.108
N42H | -0.485
T37L | 0.139
